Measured values of several laboratories.
Parts stem from different laboratories: compare values within a part only.
UniProt P10721, sequence (whole entry, unmodified, looked up): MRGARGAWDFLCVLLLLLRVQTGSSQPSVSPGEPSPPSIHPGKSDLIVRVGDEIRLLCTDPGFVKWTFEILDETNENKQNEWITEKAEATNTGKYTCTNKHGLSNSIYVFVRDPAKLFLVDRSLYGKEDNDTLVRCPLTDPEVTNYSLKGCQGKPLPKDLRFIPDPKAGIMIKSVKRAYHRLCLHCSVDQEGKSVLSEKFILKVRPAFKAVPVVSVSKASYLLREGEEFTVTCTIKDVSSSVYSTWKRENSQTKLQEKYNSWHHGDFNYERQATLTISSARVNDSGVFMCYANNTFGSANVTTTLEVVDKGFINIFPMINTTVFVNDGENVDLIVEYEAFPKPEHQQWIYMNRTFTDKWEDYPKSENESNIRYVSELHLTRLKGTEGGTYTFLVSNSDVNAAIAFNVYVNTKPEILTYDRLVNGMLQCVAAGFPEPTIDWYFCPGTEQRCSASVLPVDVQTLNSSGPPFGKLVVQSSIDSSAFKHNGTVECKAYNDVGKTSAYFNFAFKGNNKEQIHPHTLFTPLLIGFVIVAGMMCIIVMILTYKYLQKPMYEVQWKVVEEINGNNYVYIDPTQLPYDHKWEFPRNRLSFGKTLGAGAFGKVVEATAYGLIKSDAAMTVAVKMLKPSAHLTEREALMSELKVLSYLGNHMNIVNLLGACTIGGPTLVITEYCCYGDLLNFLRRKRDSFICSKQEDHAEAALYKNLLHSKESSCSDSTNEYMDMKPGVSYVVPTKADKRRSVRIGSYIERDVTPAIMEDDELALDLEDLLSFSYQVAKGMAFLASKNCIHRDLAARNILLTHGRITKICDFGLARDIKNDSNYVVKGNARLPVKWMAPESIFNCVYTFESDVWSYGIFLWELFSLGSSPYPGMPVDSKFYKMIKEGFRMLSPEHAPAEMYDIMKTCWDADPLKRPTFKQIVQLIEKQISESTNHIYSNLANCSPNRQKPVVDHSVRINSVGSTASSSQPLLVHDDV
UniProt P49759, sequence (whole entry, looked up): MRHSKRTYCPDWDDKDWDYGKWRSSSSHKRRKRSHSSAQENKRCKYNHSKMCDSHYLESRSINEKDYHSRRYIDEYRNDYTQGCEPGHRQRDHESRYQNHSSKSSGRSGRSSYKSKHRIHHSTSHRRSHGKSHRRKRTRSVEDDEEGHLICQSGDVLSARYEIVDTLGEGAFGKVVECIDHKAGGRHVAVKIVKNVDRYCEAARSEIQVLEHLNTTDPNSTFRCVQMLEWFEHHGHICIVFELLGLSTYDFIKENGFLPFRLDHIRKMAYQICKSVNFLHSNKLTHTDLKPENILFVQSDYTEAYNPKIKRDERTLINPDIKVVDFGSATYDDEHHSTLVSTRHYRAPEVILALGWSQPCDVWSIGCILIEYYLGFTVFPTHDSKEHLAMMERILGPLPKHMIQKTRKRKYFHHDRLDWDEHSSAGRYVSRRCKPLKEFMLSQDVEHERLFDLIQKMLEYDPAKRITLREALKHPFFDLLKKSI
UniProt Q13177, sequence (whole entry, looked up): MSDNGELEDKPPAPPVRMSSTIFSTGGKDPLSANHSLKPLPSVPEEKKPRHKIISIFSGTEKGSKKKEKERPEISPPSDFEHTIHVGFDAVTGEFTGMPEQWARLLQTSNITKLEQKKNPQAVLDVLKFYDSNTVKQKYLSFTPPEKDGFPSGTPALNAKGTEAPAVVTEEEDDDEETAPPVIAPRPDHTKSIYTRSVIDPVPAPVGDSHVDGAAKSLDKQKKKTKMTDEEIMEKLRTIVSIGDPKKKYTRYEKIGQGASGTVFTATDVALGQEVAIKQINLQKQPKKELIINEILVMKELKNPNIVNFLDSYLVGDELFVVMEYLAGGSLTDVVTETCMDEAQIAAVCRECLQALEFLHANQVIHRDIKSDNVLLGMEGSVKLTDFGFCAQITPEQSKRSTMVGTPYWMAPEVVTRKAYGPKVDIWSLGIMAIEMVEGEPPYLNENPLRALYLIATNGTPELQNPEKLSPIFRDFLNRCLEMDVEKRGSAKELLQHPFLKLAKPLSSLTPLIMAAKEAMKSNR
UniProt Q13976, sequence (whole entry, looked up): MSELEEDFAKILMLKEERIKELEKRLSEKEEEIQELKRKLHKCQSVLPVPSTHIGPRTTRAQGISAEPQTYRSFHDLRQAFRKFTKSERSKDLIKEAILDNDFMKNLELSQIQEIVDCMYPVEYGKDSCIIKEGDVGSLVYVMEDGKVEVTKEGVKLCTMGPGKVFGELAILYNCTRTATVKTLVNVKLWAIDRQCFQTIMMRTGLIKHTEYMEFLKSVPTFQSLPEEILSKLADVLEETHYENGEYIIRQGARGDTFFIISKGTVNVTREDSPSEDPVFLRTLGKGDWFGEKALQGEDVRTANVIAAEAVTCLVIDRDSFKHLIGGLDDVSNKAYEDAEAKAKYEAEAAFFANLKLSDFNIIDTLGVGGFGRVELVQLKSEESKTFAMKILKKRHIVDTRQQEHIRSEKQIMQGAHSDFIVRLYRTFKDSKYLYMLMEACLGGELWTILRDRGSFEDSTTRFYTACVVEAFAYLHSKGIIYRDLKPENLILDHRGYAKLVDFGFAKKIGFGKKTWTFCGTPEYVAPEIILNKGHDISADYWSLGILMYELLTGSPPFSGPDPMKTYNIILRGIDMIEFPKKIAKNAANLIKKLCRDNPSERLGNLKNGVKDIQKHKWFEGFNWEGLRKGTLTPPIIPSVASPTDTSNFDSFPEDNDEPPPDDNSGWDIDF
UniProt Q96BR1, sequence (whole entry, looked up): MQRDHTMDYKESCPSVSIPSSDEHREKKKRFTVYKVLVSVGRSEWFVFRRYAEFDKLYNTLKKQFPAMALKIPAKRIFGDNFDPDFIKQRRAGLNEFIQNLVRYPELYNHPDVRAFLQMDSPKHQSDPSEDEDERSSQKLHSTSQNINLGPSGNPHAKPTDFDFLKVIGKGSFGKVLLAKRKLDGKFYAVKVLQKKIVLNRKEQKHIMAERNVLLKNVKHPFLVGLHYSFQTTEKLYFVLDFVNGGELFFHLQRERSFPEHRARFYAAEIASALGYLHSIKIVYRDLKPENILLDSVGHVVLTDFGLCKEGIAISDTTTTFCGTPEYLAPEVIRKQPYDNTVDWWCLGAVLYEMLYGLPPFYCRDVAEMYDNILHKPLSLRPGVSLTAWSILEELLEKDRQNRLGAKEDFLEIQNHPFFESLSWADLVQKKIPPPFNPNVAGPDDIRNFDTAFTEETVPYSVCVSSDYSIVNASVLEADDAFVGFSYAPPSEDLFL
UniProt P31749, sequence (whole entry, looked up): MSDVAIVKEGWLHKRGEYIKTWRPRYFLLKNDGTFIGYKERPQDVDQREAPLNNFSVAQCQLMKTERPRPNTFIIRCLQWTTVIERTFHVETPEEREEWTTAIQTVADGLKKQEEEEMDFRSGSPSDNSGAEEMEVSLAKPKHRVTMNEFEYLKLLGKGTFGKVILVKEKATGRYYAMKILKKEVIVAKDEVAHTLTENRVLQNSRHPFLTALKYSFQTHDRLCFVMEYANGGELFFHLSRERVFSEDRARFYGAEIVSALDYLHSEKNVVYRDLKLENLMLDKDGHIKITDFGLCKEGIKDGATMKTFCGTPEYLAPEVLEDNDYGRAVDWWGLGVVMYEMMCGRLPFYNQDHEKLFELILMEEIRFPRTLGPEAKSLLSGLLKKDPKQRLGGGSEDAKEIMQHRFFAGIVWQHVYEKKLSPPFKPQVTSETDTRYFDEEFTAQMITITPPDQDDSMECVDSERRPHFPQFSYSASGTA

Sample 1 — cell line: Huh-7; concentration: 10 µM; time: 24 h
Compound | viability [%]
CC(=O)Oc1ccccc1C(=O)O | 96.2
CCOC(=O)Nc1nc2ccccc2[nH]1 | 93.6
C[N+](C)(C)CC(=O)O | 100
O=C(NCC1CCCCN1)c1cc(OCC(F)(F)F)ccc1OCC(F)(F)F (stereo not drawn) | 104
c1ccc2c(c1)CCCC2C1=NCCN1 (stereo not drawn) | 99.9
CCCCCCc1ccc(O)cc1O | 91.6
OC[C@@H](O)[C@@H](O[C@@H]1O[C@H](CO)[C@H](O)[C@H](O)[C@H]1O)[C@H](O)[C@@H](O)CO | 89.7

Sample 2 — read-out: enzyme activity; mode: inhibitor; concentration: 0.5 µM; relative to: control
Target: Fibroblast growth factor receptor 2 (FGFR2, Homo sapiens, UniProt P21802)
UniProt P21802, sequence (whole entry, looked up): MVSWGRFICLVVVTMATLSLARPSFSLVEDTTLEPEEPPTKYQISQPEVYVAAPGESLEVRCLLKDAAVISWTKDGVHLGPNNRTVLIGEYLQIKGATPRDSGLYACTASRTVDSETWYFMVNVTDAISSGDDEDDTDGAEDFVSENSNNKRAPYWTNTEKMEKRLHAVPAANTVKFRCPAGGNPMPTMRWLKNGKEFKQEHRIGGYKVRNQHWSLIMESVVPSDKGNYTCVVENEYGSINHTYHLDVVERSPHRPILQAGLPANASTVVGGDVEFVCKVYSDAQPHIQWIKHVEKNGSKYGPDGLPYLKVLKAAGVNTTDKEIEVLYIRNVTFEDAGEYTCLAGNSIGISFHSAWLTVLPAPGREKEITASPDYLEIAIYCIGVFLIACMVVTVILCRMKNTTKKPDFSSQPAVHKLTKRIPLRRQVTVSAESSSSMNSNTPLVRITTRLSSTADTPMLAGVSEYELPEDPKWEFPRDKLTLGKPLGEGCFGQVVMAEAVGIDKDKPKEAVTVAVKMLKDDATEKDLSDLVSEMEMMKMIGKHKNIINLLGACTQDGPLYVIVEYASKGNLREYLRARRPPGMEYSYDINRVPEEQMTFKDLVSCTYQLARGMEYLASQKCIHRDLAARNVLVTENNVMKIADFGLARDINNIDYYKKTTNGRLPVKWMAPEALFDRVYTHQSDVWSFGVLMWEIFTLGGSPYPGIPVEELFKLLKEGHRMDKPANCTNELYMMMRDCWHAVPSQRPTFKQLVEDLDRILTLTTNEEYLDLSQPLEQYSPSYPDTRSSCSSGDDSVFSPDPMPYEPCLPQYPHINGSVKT
Compound | remaining activity [%]
Cc1cn(-c2cc(NC(=O)c3ccc(C)c(Nc4nccc(-c5cccnc5)n4)c3)cc(C(F)(F)F)c2)cn1 | 96.5
O=C(NC(NC(=S)Nc1ccc(F)c([N+](=O)[O-])c1)C(Cl)(Cl)Cl)C(c1ccccc1)c1ccccc1 (stereo not drawn) | 97.7
Cc1cc2ncc(-c3ccccc3)nc2cc1C | 108
Cn1nc2c3c(cccc31)C(=O)c1ccccc1-2 | 105
c1ccc(-c2cnc(Nc3ccc(OCCN4CCCC4)cc3)s2)cc1 | 92.7
CCOc1nc(NC(=O)Cc2cc(OC)ccc2OC)cc(N)c1C#N | 110
C[C@@H]1CCN(C(=O)CC#N)C[C@@H]1N(C)c1ncnc2[nH]ccc12 | 91.7

Sample 3 — host: human; matrix: microsomes or S9; concentration: 2 µM; time: 0.5 h
SMILES | remaining compound [%]
O=C(Nc1ccc(-c2nc3ccccc3[nH]2)cc1)c1ccnc(-n2cnnc2)c1 | 61.3
CCCC(=O)Nc1nc2ncc(Br)nc2s1 | 74.9
CC1CCC(NS(=O)(=O)CC(=O)N2CCOCC2(C)C)CC1 (stereo not drawn) | > 99
COc1cc(C2N=C(N3CCc4ccccc43)N=C3NC(C)=CC(=O)N32)ccc1O (stereo not drawn) | 23.2
O=C(C1CC(=O)N(c2n[nH]c3cc(Br)ccc23)C1)N1CCCC1 (stereo not drawn) | > 99
Clc1cccc(C2CC(c3cccs3)Nc3ncnn32)c1Cl (stereo not drawn) | 12.5

Sample 4 — read-out: enzyme activity; mode: inhibitor; concentration: 10 µM
Target: Calcium/calmodulin-dependent protein kinase type II subunit alpha (CAMK2A, Homo sapiens, UniProt Q9UQM7)
UniProt Q9UQM7, sequence (whole entry, looked up): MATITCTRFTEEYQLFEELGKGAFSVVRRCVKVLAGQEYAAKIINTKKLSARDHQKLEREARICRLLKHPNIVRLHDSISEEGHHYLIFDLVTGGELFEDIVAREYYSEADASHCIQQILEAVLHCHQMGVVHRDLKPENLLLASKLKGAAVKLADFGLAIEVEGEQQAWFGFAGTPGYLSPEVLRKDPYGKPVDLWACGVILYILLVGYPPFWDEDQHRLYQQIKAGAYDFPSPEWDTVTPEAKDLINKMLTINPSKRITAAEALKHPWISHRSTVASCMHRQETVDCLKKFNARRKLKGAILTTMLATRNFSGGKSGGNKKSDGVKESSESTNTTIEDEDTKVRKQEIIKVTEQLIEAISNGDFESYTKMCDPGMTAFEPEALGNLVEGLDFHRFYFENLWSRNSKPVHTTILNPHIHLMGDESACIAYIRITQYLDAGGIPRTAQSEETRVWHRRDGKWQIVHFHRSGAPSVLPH
SMILES | inhibition [%]
CC[C@H]1OC(=O)[C@H](C)[C@@H](O[C@H]2C[C@@](C)(OC)[C@@H](O)[C@H](C)O2)[C@H](C)[C@@H](O[C@@H]2O[C@H](C)C[C@H](N(C)C)[C@H]2O)[C@](C)(OC)C[C@@H](C)C(=O)[C@H](C)[C@@H](O)[C@]1(C)O | 0
CC1=CC(=O)CC(C)(C)C1=O | 3
COC1OC(COS(=O)(=O)O)C(OC2OC(C(=O)O)C(OC)C(O)C2OS(=O)(=O)O)C(O)C1NS(=O)(=O)O (stereo not drawn) | -11
COc1ccnc(C[S+]([O-])c2nc3cc(-n4cccc4)ccc3[nH]2)c1C (stereo not drawn) | -11
Cc1c(C)c2c(c(C)c1O)CC[C@@](C)(CCC[C@H](C)CCC[C@H](C)CCCC(C)C)O2 (relative stereo) | 0.41
CC(C)c1cc2c(c(O)c1O)[C@@]13CCCC(C)(C)[C@@H]1C[C@@H]2OC3=O | -4

Sample 5 — read-out: cell-free assay; method: competition with immobilised ligand; concentration: 1 µM
Structure (SMILES): CC(=O)N1CCC(c2ccc(C(=O)NC3=NCCN3)cc2C(F)(F)F)CC1
target | remaining binding
PAK2 (Homo sapiens, UniProt Q13177) | 95%
Tyrosine-protein kinase ABL1, phosphorylated (ABL1, Homo sapiens, UniProt P00519, M351T) | 100%
ROCK1 (Homo sapiens, UniProt Q13464) | 0.5%
CLK1 (Homo sapiens, UniProt P49759) | 100%
PRKCD (Homo sapiens, UniProt Q05655) | 100%
MAP3K14 (Homo sapiens, UniProt Q99558) | 95%
DCLK3 (Homo sapiens, UniProt Q9C098) | 100%
FGFR2 (Homo sapiens, UniProt P21802) | 86%
SGK3 (Homo sapiens, UniProt Q96BR1) | 82%
CDKL5 (Homo sapiens, UniProt O76039) | 79%
CLK4 (Homo sapiens, UniProt Q9HAZ1) | 100%
SRMS (Homo sapiens, UniProt Q9H3Y6) | 89%
EPHB1 (Homo sapiens, UniProt P54762) | 100%
PIK3CD (Homo sapiens, UniProt O00329) | 100%
KIT (Homo sapiens, UniProt P10721, L576P) | 95%
EGFR (Homo sapiens, UniProt P00533, del752-759) | 100%
TNK2 (Homo sapiens, UniProt Q07912) | 100%
Tyrosine-protein kinase ABL1, non-phosphorylated (ABL1, Homo sapiens, UniProt P00519, H396P) | 100%
TNK1 (Homo sapiens, UniProt Q13470) | 84%
AKT1 (Homo sapiens, UniProt P31749) | 100%
KIT (Homo sapiens, UniProt P10721) | 100%
STK3 (Homo sapiens, UniProt Q13188) | 100%
MAP4K5 (Homo sapiens, UniProt Q9Y4K4) | 100%
Ribosomal protein S6 kinase alpha-2, C-terminal kinase domain (RPS6KA2, Homo sapiens, UniProt Q15349) | 83%
PRKG1 (Homo sapiens, UniProt Q13976) | 100%

Some of these lines once more (sample 3):
SMILES | remaining compound [%]
O=C(Nc1ccc(-c2nc3ccccc3[nH]2)cc1)c1ccnc(-n2cnnc2)c1 | 61.3
CCCC(=O)Nc1nc2ncc(Br)nc2s1 | 74.9
CC1CCC(NS(=O)(=O)CC(=O)N2CCOCC2(C)C)CC1 (stereo not drawn) | > 99
COc1cc(C2N=C(N3CCc4ccccc43)N=C3NC(C)=CC(=O)N32)ccc1O (stereo not drawn) | 23.2
O=C(C1CC(=O)N(c2n[nH]c3cc(Br)ccc23)C1)N1CCCC1 (stereo not drawn) | > 99
Clc1cccc(C2CC(c3cccs3)Nc3ncnn32)c1Cl (stereo not drawn) | 12.5
